Measured values collected from several papers.
Parts stem from different laboratories: compare values within a part only. Changes are numbered by the printed parent chain.
Sequence of UniProt Q15139 (whole entry, looked up): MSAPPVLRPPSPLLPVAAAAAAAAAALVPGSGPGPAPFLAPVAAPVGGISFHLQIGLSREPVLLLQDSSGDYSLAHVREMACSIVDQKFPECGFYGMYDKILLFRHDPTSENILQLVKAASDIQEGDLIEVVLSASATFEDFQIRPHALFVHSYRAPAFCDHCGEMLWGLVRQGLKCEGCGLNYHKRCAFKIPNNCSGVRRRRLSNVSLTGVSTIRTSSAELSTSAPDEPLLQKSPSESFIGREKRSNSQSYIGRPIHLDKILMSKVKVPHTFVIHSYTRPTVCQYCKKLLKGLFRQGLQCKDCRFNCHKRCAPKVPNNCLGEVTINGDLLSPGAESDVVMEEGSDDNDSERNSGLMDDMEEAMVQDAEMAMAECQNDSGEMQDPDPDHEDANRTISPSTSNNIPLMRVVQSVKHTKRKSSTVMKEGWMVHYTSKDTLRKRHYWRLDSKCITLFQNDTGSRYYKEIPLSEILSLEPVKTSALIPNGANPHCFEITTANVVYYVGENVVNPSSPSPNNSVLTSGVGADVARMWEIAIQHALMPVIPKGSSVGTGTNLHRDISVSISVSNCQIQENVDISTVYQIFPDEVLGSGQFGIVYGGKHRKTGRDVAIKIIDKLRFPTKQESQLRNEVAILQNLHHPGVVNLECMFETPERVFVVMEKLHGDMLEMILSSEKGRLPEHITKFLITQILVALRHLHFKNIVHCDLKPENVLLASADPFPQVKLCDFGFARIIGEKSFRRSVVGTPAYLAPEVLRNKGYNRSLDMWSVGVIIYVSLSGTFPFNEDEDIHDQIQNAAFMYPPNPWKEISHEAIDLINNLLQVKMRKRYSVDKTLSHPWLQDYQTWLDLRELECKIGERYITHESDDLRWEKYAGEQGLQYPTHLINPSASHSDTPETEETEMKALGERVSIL
Sequence of UniProt Q9NWZ3 (whole entry, looked up): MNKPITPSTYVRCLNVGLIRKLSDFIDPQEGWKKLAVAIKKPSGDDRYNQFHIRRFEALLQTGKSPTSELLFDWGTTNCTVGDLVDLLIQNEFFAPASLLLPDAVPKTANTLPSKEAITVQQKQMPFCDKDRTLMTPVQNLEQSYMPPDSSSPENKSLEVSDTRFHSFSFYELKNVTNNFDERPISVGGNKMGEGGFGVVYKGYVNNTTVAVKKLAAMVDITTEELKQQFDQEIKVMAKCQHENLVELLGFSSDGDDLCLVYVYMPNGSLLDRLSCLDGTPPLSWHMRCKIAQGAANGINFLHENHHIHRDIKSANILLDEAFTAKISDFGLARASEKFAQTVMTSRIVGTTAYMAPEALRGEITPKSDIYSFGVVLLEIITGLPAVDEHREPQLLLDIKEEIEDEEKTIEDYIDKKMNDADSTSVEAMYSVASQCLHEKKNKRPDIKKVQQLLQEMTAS
Sequence of UniProt Q96D53 (whole entry, looked up): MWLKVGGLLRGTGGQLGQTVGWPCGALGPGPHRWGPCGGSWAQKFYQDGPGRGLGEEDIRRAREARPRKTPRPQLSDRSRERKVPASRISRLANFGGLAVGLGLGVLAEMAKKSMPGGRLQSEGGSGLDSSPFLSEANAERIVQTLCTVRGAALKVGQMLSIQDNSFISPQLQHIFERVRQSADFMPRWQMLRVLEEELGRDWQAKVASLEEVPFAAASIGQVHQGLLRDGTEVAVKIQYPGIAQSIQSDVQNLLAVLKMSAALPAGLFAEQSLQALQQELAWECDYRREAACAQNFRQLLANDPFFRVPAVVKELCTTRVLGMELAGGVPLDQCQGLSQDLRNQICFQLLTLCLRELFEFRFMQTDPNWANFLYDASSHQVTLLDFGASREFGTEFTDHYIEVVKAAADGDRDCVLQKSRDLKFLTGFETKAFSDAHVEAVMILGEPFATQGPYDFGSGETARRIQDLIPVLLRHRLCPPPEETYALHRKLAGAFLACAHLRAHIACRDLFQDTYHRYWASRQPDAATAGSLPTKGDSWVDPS
Sequence of UniProt P06239 (whole entry, looked up): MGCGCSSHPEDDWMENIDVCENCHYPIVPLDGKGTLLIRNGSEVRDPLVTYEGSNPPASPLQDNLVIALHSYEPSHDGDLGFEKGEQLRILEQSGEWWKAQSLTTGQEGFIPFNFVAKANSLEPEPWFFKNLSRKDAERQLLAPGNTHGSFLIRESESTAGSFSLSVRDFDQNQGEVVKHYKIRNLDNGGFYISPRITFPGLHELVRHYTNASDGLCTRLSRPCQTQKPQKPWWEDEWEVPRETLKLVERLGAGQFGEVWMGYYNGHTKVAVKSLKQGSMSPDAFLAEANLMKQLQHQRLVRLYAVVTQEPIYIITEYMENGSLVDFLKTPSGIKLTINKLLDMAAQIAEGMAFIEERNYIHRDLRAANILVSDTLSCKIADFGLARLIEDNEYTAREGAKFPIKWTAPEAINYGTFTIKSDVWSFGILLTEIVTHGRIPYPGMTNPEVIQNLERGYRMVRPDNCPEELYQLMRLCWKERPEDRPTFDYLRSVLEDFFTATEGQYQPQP
Sequence of UniProt Q15418 (whole entry, looked up): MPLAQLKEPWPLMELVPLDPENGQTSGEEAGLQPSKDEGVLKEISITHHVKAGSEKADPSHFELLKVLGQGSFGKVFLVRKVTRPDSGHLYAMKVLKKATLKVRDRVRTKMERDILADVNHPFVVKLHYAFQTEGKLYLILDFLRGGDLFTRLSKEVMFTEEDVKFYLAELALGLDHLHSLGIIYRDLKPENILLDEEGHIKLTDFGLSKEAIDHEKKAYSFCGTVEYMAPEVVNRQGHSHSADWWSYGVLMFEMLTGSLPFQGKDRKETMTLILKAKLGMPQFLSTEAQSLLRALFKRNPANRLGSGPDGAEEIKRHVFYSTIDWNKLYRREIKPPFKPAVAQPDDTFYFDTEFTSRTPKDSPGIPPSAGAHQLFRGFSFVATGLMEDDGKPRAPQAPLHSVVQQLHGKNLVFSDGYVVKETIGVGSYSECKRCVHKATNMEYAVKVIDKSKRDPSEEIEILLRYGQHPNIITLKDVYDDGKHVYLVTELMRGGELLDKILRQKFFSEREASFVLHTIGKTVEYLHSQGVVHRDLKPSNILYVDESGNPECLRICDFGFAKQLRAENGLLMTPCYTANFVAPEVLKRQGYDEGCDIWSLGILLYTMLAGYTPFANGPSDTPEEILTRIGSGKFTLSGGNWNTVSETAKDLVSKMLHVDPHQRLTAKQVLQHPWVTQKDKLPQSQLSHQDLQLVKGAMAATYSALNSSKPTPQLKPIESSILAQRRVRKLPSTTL

Study 1
Target: OGT, full length, His-tagged (human)
Technique: phage display, sequencing
Sample: in vitro
Concentration: 1 µg OGT
Setting: single substitutions, 15-mer displayed peptide, unchanged parent 6.14
Relative to: input library
Reading: higher = stronger binding
Starting sequence: peptide; VAYPNSYMPKYQIST
Variant	fold enrichment
M8P	3.35 fold
V1D	9.04 fold
Y3Q	4.71 fold
Y11V	2.16 fold
S14W	6.92 fold
V1N	7.41 fold
Q12T	0.864 fold
P9H	0.983 fold

Study 2
Compound: NS(=O)(=O)c1cc(NC(=O)C2(c3ccccc3Cl)CC2)ccc1Oc1cccc(Cl)c1
Observed: cell-free assay
Technique: competition with immobilised ligand
Concentration: 1 µM
target	remaining binding [%]
Tyrosine-protein kinase ABL1, phosphorylated (ABL1, Homo sapiens, UniProt P00519, F317L)	71
Mitogen-activated protein kinase 7 (MAPK7, Homo sapiens, UniProt Q13164)	92
Serine/threonine-protein kinase 33 (STK33, Homo sapiens, UniProt Q9BYT3)	100
Serine/threonine-protein kinase PAK 6 (PAK6, Homo sapiens, UniProt Q9NQU5)	100
Tyrosine-protein kinase Lck (LCK, Homo sapiens, UniProt P06239)	80
Atypical kinase COQ8B, mitochondrial (COQ8B, Homo sapiens, UniProt Q96D53)	63
Tyrosine-protein kinase ABL1, non-phosphorylated (ABL1, Homo sapiens, UniProt P00519, Q252H)	58
Ribosomal protein S6 kinase beta-1 (RPS6KB1, Homo sapiens, UniProt P23443)	81
Tyrosine-protein kinase receptor Tie-1 (TIE1, Homo sapiens, UniProt P35590)	85
Ephrin type-A receptor 6 (EPHA6, Homo sapiens, UniProt Q9UF33)	54
Ribosomal protein S6 kinase alpha-1, C-terminal kinase domain (RPS6KA1, Homo sapiens, UniProt Q15418)	100
Dual specificity mitogen-activated protein kinase kinase 5 (MAP2K5, Homo sapiens, UniProt Q13163)	94
Serine/threonine-protein kinase pim-2 (PIM2, Homo sapiens, UniProt Q9P1W9)	76
Interleukin-1 receptor-associated kinase 4 (IRAK4, Homo sapiens, UniProt Q9NWZ3)	61
Serine/threonine-protein kinase D1 (PRKD1, Homo sapiens, UniProt Q15139)	65
Dual specificity protein kinase CLK3 (CLK3, Homo sapiens, UniProt P49761)	72
Activin receptor type-1 (ACVR1, Homo sapiens, UniProt Q04771)	100
Cyclin-dependent kinase 16 (CDK16, Homo sapiens, UniProt Q00536)	100

Study 3
Target: Sal-like protein 4, full length isoform A (SALL4, Homo sapiens, UniProt Q9UJQ4, residues 1-1053)
Sequence of UniProt Q9UJQ4 (whole entry, looked up): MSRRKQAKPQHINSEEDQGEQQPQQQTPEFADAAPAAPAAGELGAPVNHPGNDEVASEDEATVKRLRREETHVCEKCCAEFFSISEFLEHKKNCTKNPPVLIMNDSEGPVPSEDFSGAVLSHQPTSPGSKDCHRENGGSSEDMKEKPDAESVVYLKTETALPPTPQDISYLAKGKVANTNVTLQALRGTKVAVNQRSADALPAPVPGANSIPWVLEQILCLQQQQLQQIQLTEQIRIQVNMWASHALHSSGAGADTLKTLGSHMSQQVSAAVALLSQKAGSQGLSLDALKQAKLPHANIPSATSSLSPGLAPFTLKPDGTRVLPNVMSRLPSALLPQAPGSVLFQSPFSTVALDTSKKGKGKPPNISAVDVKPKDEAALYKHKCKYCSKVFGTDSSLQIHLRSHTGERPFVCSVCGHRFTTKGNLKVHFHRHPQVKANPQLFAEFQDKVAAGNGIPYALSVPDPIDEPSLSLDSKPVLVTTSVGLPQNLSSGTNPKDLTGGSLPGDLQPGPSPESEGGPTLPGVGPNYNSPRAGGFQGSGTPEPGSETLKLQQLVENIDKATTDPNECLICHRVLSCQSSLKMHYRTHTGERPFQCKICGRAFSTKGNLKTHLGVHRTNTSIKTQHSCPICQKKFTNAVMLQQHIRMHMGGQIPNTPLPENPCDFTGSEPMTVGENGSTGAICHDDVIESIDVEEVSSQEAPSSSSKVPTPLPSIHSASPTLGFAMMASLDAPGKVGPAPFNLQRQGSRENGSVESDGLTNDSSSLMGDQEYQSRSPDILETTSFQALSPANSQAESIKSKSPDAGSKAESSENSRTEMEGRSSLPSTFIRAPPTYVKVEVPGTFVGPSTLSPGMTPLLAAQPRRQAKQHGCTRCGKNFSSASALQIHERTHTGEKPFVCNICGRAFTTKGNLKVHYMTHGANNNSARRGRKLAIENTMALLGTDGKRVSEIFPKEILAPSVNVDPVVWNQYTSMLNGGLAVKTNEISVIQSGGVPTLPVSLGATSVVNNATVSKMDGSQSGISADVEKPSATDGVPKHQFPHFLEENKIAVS
Technique: universal PBM
Molecule type: double-stranded DNA, one strand shown
Sample: in vitro
Concentration: 600 nM
Setting: 8-mer, flanks averaged, mean of replicates
Reading: higher = stronger binding
Sequence	E-score
ACCGCAAG	-0.0862
AGCTGATG	-0.00294
ACGAACAC	0.0415
CTAAGTAA	0.221
ACGAGGAT	0.049
AAAGAGTT	0.139
CGTGCCGC	-0.328
AATGACAG	0.0851

Study 4
Target: Mitogen-activated protein kinase kinase kinase kinase 5 (MAP4K5, Homo sapiens, UniProt Q9Y4K4)
Sequence of UniProt Q9Y4K4 (whole entry, looked up): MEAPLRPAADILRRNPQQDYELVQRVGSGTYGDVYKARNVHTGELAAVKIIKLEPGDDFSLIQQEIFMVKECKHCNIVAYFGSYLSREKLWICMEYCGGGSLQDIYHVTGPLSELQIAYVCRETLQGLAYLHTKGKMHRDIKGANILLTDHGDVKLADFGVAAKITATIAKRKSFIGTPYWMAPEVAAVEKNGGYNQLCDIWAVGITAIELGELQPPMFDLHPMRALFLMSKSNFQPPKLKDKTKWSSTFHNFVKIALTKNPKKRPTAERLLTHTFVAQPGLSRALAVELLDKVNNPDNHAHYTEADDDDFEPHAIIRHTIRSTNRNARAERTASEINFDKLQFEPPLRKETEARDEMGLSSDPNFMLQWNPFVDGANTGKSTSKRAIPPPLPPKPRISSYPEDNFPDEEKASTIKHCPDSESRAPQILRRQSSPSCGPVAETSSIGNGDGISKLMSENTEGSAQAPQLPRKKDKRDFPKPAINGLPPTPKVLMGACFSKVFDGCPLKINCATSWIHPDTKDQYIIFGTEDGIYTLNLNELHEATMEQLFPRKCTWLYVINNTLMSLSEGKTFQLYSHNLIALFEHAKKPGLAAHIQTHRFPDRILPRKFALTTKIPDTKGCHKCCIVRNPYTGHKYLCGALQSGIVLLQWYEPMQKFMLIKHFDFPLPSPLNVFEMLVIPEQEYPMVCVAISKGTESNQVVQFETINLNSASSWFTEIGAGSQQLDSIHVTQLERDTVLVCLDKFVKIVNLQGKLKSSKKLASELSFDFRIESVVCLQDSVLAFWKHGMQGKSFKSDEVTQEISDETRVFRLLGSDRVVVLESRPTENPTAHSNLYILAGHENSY
Observed: enzyme activity
Action: inhibitor
Concentration: 0.5 µM
Relative to: control
SMILES	remaining activity
COc1ccc(CNC(=O)Nc2ncc([N+](=O)[O-])s2)cc1	93.9%
COc1ccc(C(=O)Nc2sc3c(c2C(N)=O)CCCC3)cc1OC	94.3%
O=C(CCCc1ccc(-c2ccccc2F)cc1)Nc1ccc(O)cc1	94.1%
OCC(O)CCON=C1C(c2c(O)[nH]c3ccccc23)=Nc2ccccc21 (stereo not shown)	15.5%
O=S(=O)(c1cccc2cnccc12)N1CCCNCC1	36.3%
CCOC(=O)c1c(C)[nH]c(/C=C2\C(=O)Nc3ccccc32)c1C	84.3%
Nc1ccc2ncnc(NCCc3ccc(Oc4ccccc4)cc3)c2c1	94.8%
CO[C@H]1C[C@@H]2CC[C@@H](C)[C@@](O)(O2)C(=O)C(=O)N2CCCC[C@H]2C(=O)O[C@H]([C@H](C)C[C@@H]2CC[C@@H](O)[C@H](OC)C2)CC(=O)[C@H](C)/C=C(\C)[C@@H](O)[C@@H](OC)C(=O)[C@H](C)C[C@H](C)/C=C/C=C/C=C/1C	110%
Cn1c2ccccc2c2c3c(c4c5ccccc5n(CCC#N)c4c21)CNC3=O	4.18%
COc1cc2nccc(Oc3ccc(NC(=S)NC(=O)c4ccccc4C)cc3)c2cc1OC	11.1%
Cc1cccc(-c2[nH]c(C(C)(C)C)nc2-c2ccc3c(c2)OCO3)n1	99.2%
Nc1ncnc2n[nH]c(Nc3ccc(F)cc3)c12	52%
O=C(Nc1cccc(Nc2cc(Nc3cccc(C(F)(F)F)c3)ncn2)c1)C1CC1	96.1%
Cn1sc(=O)n(Cc2ccccc2)c1=O	107%
O=C(O)c1ccc2c3c1cccc3c(=O)n1c3ccccc3nc21	47%

A few entries again (study 4):
SMILES	remaining activity
O=C(Nc1cccc(Nc2cc(Nc3cccc(C(F)(F)F)c3)ncn2)c1)C1CC1	96.1%
O=C(CCCc1ccc(-c2ccccc2F)cc1)Nc1ccc(O)cc1	94.1%
OCC(O)CCON=C1C(c2c(O)[nH]c3ccccc23)=Nc2ccccc21 (stereo not shown)	15.5%
